Results of several laboratories.
Values joined by “and” are separate records of one study, mostly repeats; a detail may differ. ± gives the spread as reported. Converted amounts (≈) assume the structure as drawn.

SMILES | tested on | test | system | setting | scale | endpoint | result
CCCCC(CC)COC(=O)CC(C(=O)OCC(CC)CCCC)S(=O)(=O)O.CCCSc1ccc2[nH]c(NC(=O)OC)nc2c1 (stereo not drawn) | Cryptococcus neoformans | microscopy | GFP-β-tubulin expressing | 1.25 µM, 6 h | – | cells with visible microtubules | 0.03 ± 0.07%
C[N+]1=C2C(c3ccccc3)=[N+]([O-])c3ccccc3N2CCC1 | Clostridioides difficile | microbial growth | – | – | – | MIC90 | 32 µg/mL
CC[C@H](C)[C@H](NC(=O)[C@H](C)NC(=O)CNC(=O)[C@H](C)NC(=O)[C@H](CCCCN)NC(=O)[C@H](CO)NC(=O)[C@H](C)NC(=O)[C@H](CCSC)NC(=O)CN)C(=O)N[C@@H](C)C(=O)NCC(=O)N[C@@H](CCCCN)C(=O)N[C@H](C(=O)N[C@@H](C)C(=O)N[C@@H](CCCCN)C(=O)N[C@H](C(=O)N[C@@H](C)C(=O)N[C@@H](CC(C)C)C(=O)N[C@@H](CCCCN)C(=O)N[C@@H](C)C(=O)N[C@@H](CC(C)C)C(N)=O)C(C)C)[C@@H](C)CC | Escherichia coli | – | 0370 wild type | at EC90, mean of ratios, together with: ampicillin | – | combination index | 1.3
CC[C@H](C)CCCCC(=O)N[C@@H](CCN)C(=O)N[C@H](C(=O)N[C@@H](CCN)C(=O)N[C@H]1CCNC(=O)[C@H]([C@@H](C)O)NC(=O)[C@H](CCN)NC(=O)[C@H](CCN)NC(=O)[C@H](CC(C)C)NC(=O)[C@@H](CC(C)C)NC(=O)[C@H](CCN)NC1=O)[C@@H](C)O | Escherichia coli | daily serial passaging | ATCC 8739 | highest sub-MIC, 46 days | baseline: initial MIC | MIC fold change | 4.42
CN(C(=O)c1ccn2ncc(-c3ccc(C(N)=O)cc3)c2c1)c1ccc(C#N)cn1 | Cryptosporidium parvum | – | UGA1 Nluc, IFN-gamma knockout C57BL/6 mice, faeces | oral, 10 mg/kg daily, 72 h post infection, treatment days 11-17 | higher means more parasites | faecal Nluc luminescence | 37 a.u. and 52 a.u. and 83 a.u. and 110 a.u.
CC(O)CN.O=C(O)C(Cl)Cl | Chenopodium album | herbicidal activity | – | 15 mg/mL, 21 days, post-emergence greenhouse | – | inhibition | 73%
Brc1ccc(CCNC2CCCc3c2[nH]c2ccc(C4CCCCC4)cc32)cc1 (stereo not drawn) | Streptococcus pneumoniae | – | – | concentration not given, 10% fetal bovine serum | baseline: without serum | MIC fold change | 4
Oc1cc(Cl)ccc1Oc1ccc(Cl)cc1Cl | Mycobacterium marinum | – | – | – | – | MIC90 | 50 µM
C[N+]1=C2C(c3ccc([N+](=O)[O-])cc3)=[N+]([O-])c3ccccc3N2CCC1 | Clostridioides difficile | microbial growth | – | – | – | MIC90 | 0.5 µg/mL
C#CCN1C(=O)C(CC#C)(C(=O)OCC)Oc2ccccc21 (stereo not drawn) | Rhizoctonia solani | microbial growth | – | 50 µg/mL | – | inhibition | < 25%
CCc1nn(C)c2nc(-c3ccc(C(=O)O)cc3)nc(NCc3ccccc3)c12 | Cryptosporidium parvum | – | HCT-8 | 9 x EC90, 48 h | baseline: DMSO control | parasite number | 30.1% and 25.8% and 37% and 29%
CC(C)C[C@H](NC(=O)[C@H](CCN)NC(=O)[C@H](CCN)NC(=O)[C@@H](Cc1ccccc1)NC(=O)[C@H](CC(C)C)NC(=O)[C@H](CCN)NC(=O)[C@H](CCN)NC(=O)[C@@H](CCN)NC(=O)CCSCCOC(=O)c1ccccc1)C(N)=O | Acinetobacter calcoaceticus | BHI agar spot plating | – | 24 h, 37 °C | – | MBC | 64 µM (≈ 72.2 µg/mL)
Cc1cc(C(=O)Nc2nc3cccc(C)c3n2[C@H]2CCCCN(C(=O)/C=C/CN(C)C)C2)ccn1 | Trypanosoma brucei | propidium iodide flow cytometry, measured: G2/M phase | bloodstream CLK1 over-expression induced | concentration not given | – | cell cycle distribution | 24.1% and 26.7% and 25.2%
CN(C)c1cccc(-c2ccc3ncnc(Nc4ccc(OCc5cccc(F)c5)c(Cl)c4)c3c2)c1 | Trypanosoma cruzi | intracellular amastigote growth | NIH 3T3, Tulahuen, β-galactosidase-expressing | 10 µM, 96 h | – | inhibition | 58%
CC[C@H](C)[C@@H]1NC(=O)[C@H](CO)NC(=O)[C@H](CCCCN)NC(=O)[C@@H]2CSSC[C@@H](C(=O)N[C@@H](Cc3ccc(O)cc3)C(N)=O)NC(=O)[C@H](CCCCN)NC(=O)[C@@H]3CSSC[C@H](NC(=O)[C@H](CCCNC(=N)N)NC(=O)[C@H](CC(C)C)NC(=O)[C@H](CC(=O)O)NC(=O)[C@H](CC(=O)O)NC(=O)[C@H](CCC(=O)O)NC(=O)[C@H](CC(N)=O)NC(=O)[C@H](Cc4c[nH]c5ccccc45)NC(=O)C(C)(CC)NC(=O)CNC(=O)[C@H](CC(N)=O)NC(=O)[C@@H](NC(=O)CNC(=O)[C@H](Cc4ccccc4)NC(=O)CN)CSSC[C@H](NC(=O)[C@H](Cc4ccc(O)cc4)NC(=O)CNC(=O)CNC(=O)[C@H](CCCCN)NC(=O)[C@H](Cc4ccc(O)cc4)NC(=O)[C@H]4CCCN4C(=O)[C@@H]4CCCN4C1=O)C(=O)N[C@@H](C)C(=O)N[C@@H](CCCCN)C(=O)N1CCC[C@@H]1C(=O)NCC(=O)N[C@@H](Cc1ccccc1)C(=O)N[C@@H](C(C)C)C(=O)N3)C(=O)N[C@@H](Cc1c[nH]cn1)C(=O)N[C@@H](CC(N)=O)C(=O)N[C@@H](Cc1c[nH]cn1)C(=O)N2 (stereo partly drawn) | Streptococcus pneumoniae | – | BS-444 | 24 h, 37 °C, 99.9% killing | – | MBC | 2 µM (≈ 8.92 µg/mL)
CC(C)[C@H]1NC(=O)[C@H](Cc2ccccc2)NC(=O)[C@@H](C(C)C)NC(=O)[C@@H](C)NC(=O)[C@H](CO)NC(=O)[C@@H](Cc2c(-c3ccccc3-c3ccccc3)[nH]c3ccccc23)NC(=O)[C@@H](CO)NC1=O | Mycobacterium marinum | – | – | – | – | MIC90 | > 100 µM
CN(C)c1nc(NCc2cccc(-c3ccccc3)c2)c(/N=N/c2ccc(Cl)cc2)c(N(C)C)n1 | Ostrinia furnacalis | leaf dipping | – | 200 mg/L, 96 h | – | mortality | 76.7 ± 5.8%
CCCCCCCCCCCC(=O)C(C)C(=O)N1CCC[C@H]1C(=O)NC(C)(C)C(=O)NC(C)(C)C(=O)NC(C)(C)C(=O)N[C@](C)(CC)C(=O)NCCC(=O)N[C@@H](C)C(=O)N[C@](C)(CC)C(=O)N[C@@H](C)C(=O)N[C@@H](CC(C)C)C(=O)N[C@](C)(CC)C(=O)NCCC(=O)N[C@@H](C)C(=O)N[C@](C)(CC)C(=O)NCCC(=O)N[C@@H](C)C(=O)NC(C)(C)C(=O)NC(C)(C)C(=O)NC(C)(C)C(=O)N[C@@H](C)C(=O)N[C@@H](CC(=O)O)C(=O)O (stereo partly drawn) | Cryptococcus neoformans | calcofluor white microscopy | H99 | half MIC, 4 h, 30 °C, YPD medium | baseline: DMSO vehicle, higher = more chitin | chitin level (calcofluor fluorescence) | 0.0574 a.u. and 0.0573 a.u.
O=C1NC2(CC2)COc2ncc(F)cc2[C@H]2COCCN2c2ccn3ncc1c3n2 | – | – | Sprague-Dawley rats, male, blood | oral, 5 mg/kg/day, end of recovery, 4-week subacute toxicity | – | APTT | 19.3 ± 1.4 s
CC[C@H](C)[C@@H]1NC(=O)[C@@H](CCCNC(=N)N)NC(=O)[C@@H](NC(=O)[C@@H](CC(C)C)NC(=O)[C@H](C)NC(=O)[C@H](C)NC(=O)[C@@H]2CCCN2C(=O)[C@@H](CC(C)C)NC(=O)[C@@H](NC(=O)[C@@H](CCCNC(=N)N)NC(=O)[C@@H](CC(C)C)NC(=O)[C@@H](CC(C)C)NC(=O)[C@@H](NC(=O)[C@@H](CCCNC(=N)N)NC(=O)[C@@H](CC(C)C)NC(=O)[C@@H](NC(=O)[C@@H](NC(=O)CNC(=O)[C@@H](CC(C)C)NC(=O)[C@@H](N)Cc2ccccc2)[C@@H](C)O)C(C)C)C(C)C)C(C)C)CSSC[C@@H](C(=O)O)NC(=O)[C@@H](CCCNC(=N)N)NC(=O)[C@@H](CCCNC(=N)N)NC(=O)[C@H](Cc2ccccc2)NC1=O | Staphylococcus aureus MRSA NCTC 12493 | – | Galleria mellonella larvae | 8 mg/kg, titanium implant biofilm infection | – | survival | 60%
O=S(=O)(c1ccc(-c2ccc3ncnc(Nc4ccc(OCc5ccc(F)cc5)c(Cl)c4)c3c2)cc1)N1CCOCC1 | Trypanosoma cruzi | intracellular amastigote growth, β-galactosidase CPRG | 3T3, Tulahuen, β-galactosidase-expressing | 10 µM, 96 h | – | inhibition | 0%

For quick reference, copied from above:
SMILES | tested on | test | system | setting | scale | endpoint | result
C[N+]1=C2C(c3ccccc3)=[N+]([O-])c3ccccc3N2CCC1 | Clostridioides difficile | microbial growth | – | – | – | MIC90 | 32 µg/mL
